Results pooled from the literature.
Protocols differ between the studies behind these lines. Values joined by “and” are separate records of one study, mostly repeats; a detail may differ. Numbers after ± are the reported error.
Cell line: HepG2

Cc1ccc2c(Cl)cc(Cl)c([O-])c2n1.Cc1ccc2c(Cl)cc(Cl)c([O-])c2n1.[Co+2].c1ccc2nc3c4cccnc4c4ncccc4c3nc2c1 — IC50 (cell growth or viability, MTT; 48 h): 120 nM
CCC(=[NH+][Pt-2]1([Cl])([O]C(=O)CC(C)C)([O]C(=O)CC(C)C)[NH2+]CCC[NH2+]1)N(C)CCNc1c2ccccc2[nH+]c2ccccc12.O=[N+]([O-])[O-].O=[N+]([O-])[O-] — IC50 fold shift (72 h, together with: pyrimethamine 1 µM; reference: with over without pyrimethamine): 160 fold
NC1=C(Cl)C(=O)c2cccc([N+](=O)[O-])c2C1=O — selectivity index (MTT; reference: IC50 MRC-5 over IC50 HepG2): 1.35
CC1(C)CC[C@@]2(CO)C(=C3C=C[C@@H]4[C@@]5(C)CC[C@H](O)[C@@](C)(CO)[C@@H]5CC[C@@]4(C)[C@]3(C)C[C@@H]2O)C1 — protein level (Western blot, refers to: PPAR-α; 7.5 µM, no ethanol, unit not given; reference: β-actin): 1.37 and 3.13 and 2.13
CCNC(=S)N/N=C(\C)c1c(O)c2ccccc2oc1=O — selectivity index (cell growth, MTT; reference: IC50 BJ-1 over HepG2): > 2.16
CCOC(=O)c1ccc(NC(=O)C(C#N)=C2C(=O)c3ccccc3C2=O)cc1 — viability (cell growth or viability, MTT; 12.5 µM, 24 h): 64.2%
NC(=O)c1ccc(-c2ccccc2Cl)c2c3c([nH]c12)CCC(N)C3 (stereo not shown) — IC50 (cell growth or viability; 96 h): 21.7 nM
CSC(=S)N/N=C(\C)c1ccc(Nc2nnc(-c3ccc(Cl)cc3)c3ccccc23)cc1 — cell death (cell growth or viability, MTT; 0.312 µM): 82.4%
CCN(C(=O)c1cc(F)ccc1Oc1nncnc1N1CCC2(C1)CN([C@H](CCCN(C)CCOC)C(C)C)C2)C(C)C — GI50 (cell growth or viability; 72 h): > 10000 nM
CC(C)(C)NC(=O)CC(NC(=O)CCc1ccccc1)C(=O)NCCNC(=O)c1ccc(-c2ccccc2)cc1 (stereo not shown) — EC50 (cytotoxicity): > 100000 nM
Nc1nc(=O)n([C@@H]2O[C@H](CO)[C@@H](O)[C@H]2O)cc1F — IC50 (cell growth or viability): 1640 nM
CCOC(=O)c1ccc(-n2c(N)c(C#N)c(SC)c(C#N)c2=O)cc1 — viability (cell growth or viability, MTT; 100 µM, 24 h): 30.2%
Cc1ccc(C(C)C)cc1.Cc1ccc(C(C)C)cc1.Cc1ccc(C(C)C)cc1.Cc1ccc(C(C)C)cc1.O=S(=O)(O)C(F)(F)F.O=S(=O)(O)C(F)(F)F.O=S(=O)(O)C(F)(F)F.O=S(=O)(O)C(F)(F)F.c1ccc2c3c4ccccc4c(c2c1)-c1cn(nn1)-c1cc[n+](cc1)[Ru-]1[O]c2c4ccccc4c4c5c(c6ccccc6c(c25)=[O+]1)=[O+][Ru-]([O]4)[n+]1ccc(cc1)-n1cc(nn1)-c1c2ccccc2c(c2ccccc12)-c1cn(nn1)-c1cc[n+](cc1)[Ru-]1[O]c2c4ccccc4c4c5c(c6ccccc6c(c25)=[O+]1)=[O+][Ru-]([O]4)[n+]1ccc(cc1)-n1cc-3nn1 — IC50 (cell growth, MTT; 24 h, after 24 h preincubation in medium at 37 °C): 4300 ± 570 nM
C/C(=N\NC(N)=S)c1c(O)c2ccccc2oc1=O — selectivity index (cell growth, MTT; reference: IC50 BJ-1 over HepG2): > 1.63
CC(C)(C)NC(=O)CC(NC(=O)CCc1ccccc1)C(=O)NCCNC(=O)c1cccc2ccccc12 (stereo not shown) — EC50 (cytotoxicity): 11100 nM
COc1ccc(NC(=O)c2c(Nc3ccccc3)sc(C(=O)N/N=C/c3ccc(OC)c(OC)c3)c2NC(C)=O)cc1 — viability (cell growth or viability, SRB; 0.1 µM, 48 h): 74%
CC[C@H](C)[C@H](NC(=O)[C@@H](NC(=O)[C@@H]1CCCN1C(=O)[C@@H](NC(=O)[C@@H](NC(=O)[C@@H]1CCCN1C(=O)[C@H](CC(C)C)NC(=O)[C@@H](NC(=O)[C@@H](NC(=O)[C@H](Cc1c[nH]cn1)NC(=O)[C@@H]1CCCN1C(=O)[C@H](CC(C)C)NC(=O)[C@@H](NC(=O)[C@H](Cc1c[nH]cn1)NC(=O)[C@H](CCCCN)NC(=O)[C@H](C)NC(=O)[C@@H](NC(=O)[C@H](CO)NC(=O)CNC(=O)[C@H](CC(C)C)NC(=O)[C@@H](NC(=O)[C@H](CO)NC(=O)[C@H](CC(C)C)NC(=O)[C@H](CC(C)C)NC(=O)CN)C(C)C)C(C)C)C(C)C)C(C)C)C(C)C)C(C)C)C(C)C)C(C)C)C(=O)N[C@@H](C)C(=O)N[C@@H](CCC(=O)O)C(=O)N[C@@H](Cc1c[nH]cn1)C(=O)N[C@@H](CC(C)C)C(N)=O — growth inhibition (5 µg/mL, 24 h): no inhibition
CN1CCC(N[C@H]2CCc3[nH]c4c(C(N)=O)ccc(-c5ccccc5Cl)c4c3C2)CC1 — IC50 (cell growth or viability): 1090 nM
CCN1C(=O)CS/C1=N/N=C(\C)c1c(O)c2ccccc2oc1=O — selectivity index (cell growth, MTT; reference: IC50 BJ-1 over HepG2): > 1.07
COc1ccc2cc3[n+](cc2c1OCCCOC(=O)c1cscn1)CCc1cc2c(cc1-3)OCO2 — lipid levels (refers to: TC, TG, LDL-C; 10-20 µM, 24 h, together with: oleic acid 1 mmol/L; reference: oleic acid alone): decreased
NC1=C(Cl)C(=O)c2ccccc2C1=O — selectivity index (MTT; reference: IC50 MRC-5 over IC50 HepG2): 1.49
Cc1ccc2c(Cl)cc(Cl)c([O-])c2n1.Cc1ccc2c(Cl)cc(Cl)c([O-])c2n1.[Co+2].c1cnc2c(c1)ccc1cccnc12 — IC50 (cell growth or viability, MTT; 48 h): 5660 nM

A few entries again:
CCOC(=O)c1ccc(-n2c(N)c(C#N)c(SC)c(C#N)c2=O)cc1 — viability (cell growth or viability, MTT; 100 µM, 24 h): 30.2%
Cc1ccc(C(C)C)cc1.Cc1ccc(C(C)C)cc1.Cc1ccc(C(C)C)cc1.Cc1ccc(C(C)C)cc1.O=S(=O)(O)C(F)(F)F.O=S(=O)(O)C(F)(F)F.O=S(=O)(O)C(F)(F)F.O=S(=O)(O)C(F)(F)F.c1ccc2c3c4ccccc4c(c2c1)-c1cn(nn1)-c1cc[n+](cc1)[Ru-]1[O]c2c4ccccc4c4c5c(c6ccccc6c(c25)=[O+]1)=[O+][Ru-]([O]4)[n+]1ccc(cc1)-n1cc(nn1)-c1c2ccccc2c(c2ccccc12)-c1cn(nn1)-c1cc[n+](cc1)[Ru-]1[O]c2c4ccccc4c4c5c(c6ccccc6c(c25)=[O+]1)=[O+][Ru-]([O]4)[n+]1ccc(cc1)-n1cc-3nn1 — IC50 (cell growth, MTT; 24 h, after 24 h preincubation in medium at 37 °C): 4300 ± 570 nM
